# Assay results collected from several papers.
# Protocols differ between the studies behind these lines.
# TMPRSS2: Transmembrane protease serine 2 (TMPRSS2, Homo sapiens, UniProt O15393)
# UniProt O15393, sequence (whole entry, looked up): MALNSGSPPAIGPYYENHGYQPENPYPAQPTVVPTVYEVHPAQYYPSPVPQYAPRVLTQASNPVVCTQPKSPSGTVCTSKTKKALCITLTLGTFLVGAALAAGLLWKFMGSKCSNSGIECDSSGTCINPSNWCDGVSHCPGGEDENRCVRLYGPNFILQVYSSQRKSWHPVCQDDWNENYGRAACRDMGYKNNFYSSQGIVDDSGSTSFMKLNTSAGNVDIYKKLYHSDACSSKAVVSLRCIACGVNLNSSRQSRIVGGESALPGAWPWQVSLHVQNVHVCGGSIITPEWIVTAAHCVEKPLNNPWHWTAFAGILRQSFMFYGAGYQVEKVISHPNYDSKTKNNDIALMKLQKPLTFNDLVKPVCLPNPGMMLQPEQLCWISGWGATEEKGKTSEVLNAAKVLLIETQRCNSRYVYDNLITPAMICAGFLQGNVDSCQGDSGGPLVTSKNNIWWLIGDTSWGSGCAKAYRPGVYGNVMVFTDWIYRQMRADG
# CTSL: Procathepsin L (CTSL, Homo sapiens, UniProt P07711)
# UniProt P07711, sequence (whole entry, looked up): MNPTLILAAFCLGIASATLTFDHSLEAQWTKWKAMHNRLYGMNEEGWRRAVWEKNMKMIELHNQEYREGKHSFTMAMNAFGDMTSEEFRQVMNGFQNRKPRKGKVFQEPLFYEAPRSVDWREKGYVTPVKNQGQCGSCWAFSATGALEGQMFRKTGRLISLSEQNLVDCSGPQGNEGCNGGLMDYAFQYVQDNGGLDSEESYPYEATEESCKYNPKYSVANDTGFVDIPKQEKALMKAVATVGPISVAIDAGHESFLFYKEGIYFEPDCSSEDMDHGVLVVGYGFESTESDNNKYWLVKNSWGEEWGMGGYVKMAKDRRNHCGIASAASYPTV
# PFF0160c E182D: Dihydroorotate dehydrogenase (quinone), mitochondrial (PFF0160c, Plasmodium falciparum, UniProt Q08210, E182D)
# UniProt P25025, sequence (whole entry, looked up): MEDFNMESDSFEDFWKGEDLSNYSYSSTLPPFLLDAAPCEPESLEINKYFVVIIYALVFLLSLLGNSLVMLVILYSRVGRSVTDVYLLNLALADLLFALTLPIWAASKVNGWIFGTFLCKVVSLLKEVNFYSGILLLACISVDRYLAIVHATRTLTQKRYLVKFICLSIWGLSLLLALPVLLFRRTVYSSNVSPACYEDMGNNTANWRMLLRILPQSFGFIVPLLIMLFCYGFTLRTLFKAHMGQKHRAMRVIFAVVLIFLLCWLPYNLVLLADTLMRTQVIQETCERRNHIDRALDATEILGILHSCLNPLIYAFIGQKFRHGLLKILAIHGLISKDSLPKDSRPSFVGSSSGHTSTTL
# UniProt P30530, sequence (whole entry, looked up): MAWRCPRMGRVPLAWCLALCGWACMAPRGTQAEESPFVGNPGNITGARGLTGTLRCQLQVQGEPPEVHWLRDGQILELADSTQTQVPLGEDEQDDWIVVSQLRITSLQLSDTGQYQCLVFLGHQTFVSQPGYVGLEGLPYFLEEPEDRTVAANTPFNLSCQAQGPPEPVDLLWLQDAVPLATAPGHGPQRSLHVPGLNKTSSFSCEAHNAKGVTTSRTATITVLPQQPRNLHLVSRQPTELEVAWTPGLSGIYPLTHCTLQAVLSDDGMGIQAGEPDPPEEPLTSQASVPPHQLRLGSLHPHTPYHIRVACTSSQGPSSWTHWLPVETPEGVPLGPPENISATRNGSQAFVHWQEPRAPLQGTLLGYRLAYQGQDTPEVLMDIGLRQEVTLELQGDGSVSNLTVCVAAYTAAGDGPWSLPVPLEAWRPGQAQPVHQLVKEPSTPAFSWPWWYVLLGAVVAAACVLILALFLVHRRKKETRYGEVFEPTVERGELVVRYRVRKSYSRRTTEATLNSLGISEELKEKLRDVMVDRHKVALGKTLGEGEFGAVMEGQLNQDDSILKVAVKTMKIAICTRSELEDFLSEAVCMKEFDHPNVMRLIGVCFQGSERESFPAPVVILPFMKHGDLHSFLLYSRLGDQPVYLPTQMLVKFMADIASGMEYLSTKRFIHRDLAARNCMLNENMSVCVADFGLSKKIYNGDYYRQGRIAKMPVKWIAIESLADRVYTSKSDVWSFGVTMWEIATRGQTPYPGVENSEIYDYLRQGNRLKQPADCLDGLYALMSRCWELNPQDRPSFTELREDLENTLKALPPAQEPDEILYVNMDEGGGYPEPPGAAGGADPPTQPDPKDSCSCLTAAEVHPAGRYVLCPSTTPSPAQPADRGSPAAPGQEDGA
# UniProt Q8IZX4, sequence (whole entry, unmodified, looked up): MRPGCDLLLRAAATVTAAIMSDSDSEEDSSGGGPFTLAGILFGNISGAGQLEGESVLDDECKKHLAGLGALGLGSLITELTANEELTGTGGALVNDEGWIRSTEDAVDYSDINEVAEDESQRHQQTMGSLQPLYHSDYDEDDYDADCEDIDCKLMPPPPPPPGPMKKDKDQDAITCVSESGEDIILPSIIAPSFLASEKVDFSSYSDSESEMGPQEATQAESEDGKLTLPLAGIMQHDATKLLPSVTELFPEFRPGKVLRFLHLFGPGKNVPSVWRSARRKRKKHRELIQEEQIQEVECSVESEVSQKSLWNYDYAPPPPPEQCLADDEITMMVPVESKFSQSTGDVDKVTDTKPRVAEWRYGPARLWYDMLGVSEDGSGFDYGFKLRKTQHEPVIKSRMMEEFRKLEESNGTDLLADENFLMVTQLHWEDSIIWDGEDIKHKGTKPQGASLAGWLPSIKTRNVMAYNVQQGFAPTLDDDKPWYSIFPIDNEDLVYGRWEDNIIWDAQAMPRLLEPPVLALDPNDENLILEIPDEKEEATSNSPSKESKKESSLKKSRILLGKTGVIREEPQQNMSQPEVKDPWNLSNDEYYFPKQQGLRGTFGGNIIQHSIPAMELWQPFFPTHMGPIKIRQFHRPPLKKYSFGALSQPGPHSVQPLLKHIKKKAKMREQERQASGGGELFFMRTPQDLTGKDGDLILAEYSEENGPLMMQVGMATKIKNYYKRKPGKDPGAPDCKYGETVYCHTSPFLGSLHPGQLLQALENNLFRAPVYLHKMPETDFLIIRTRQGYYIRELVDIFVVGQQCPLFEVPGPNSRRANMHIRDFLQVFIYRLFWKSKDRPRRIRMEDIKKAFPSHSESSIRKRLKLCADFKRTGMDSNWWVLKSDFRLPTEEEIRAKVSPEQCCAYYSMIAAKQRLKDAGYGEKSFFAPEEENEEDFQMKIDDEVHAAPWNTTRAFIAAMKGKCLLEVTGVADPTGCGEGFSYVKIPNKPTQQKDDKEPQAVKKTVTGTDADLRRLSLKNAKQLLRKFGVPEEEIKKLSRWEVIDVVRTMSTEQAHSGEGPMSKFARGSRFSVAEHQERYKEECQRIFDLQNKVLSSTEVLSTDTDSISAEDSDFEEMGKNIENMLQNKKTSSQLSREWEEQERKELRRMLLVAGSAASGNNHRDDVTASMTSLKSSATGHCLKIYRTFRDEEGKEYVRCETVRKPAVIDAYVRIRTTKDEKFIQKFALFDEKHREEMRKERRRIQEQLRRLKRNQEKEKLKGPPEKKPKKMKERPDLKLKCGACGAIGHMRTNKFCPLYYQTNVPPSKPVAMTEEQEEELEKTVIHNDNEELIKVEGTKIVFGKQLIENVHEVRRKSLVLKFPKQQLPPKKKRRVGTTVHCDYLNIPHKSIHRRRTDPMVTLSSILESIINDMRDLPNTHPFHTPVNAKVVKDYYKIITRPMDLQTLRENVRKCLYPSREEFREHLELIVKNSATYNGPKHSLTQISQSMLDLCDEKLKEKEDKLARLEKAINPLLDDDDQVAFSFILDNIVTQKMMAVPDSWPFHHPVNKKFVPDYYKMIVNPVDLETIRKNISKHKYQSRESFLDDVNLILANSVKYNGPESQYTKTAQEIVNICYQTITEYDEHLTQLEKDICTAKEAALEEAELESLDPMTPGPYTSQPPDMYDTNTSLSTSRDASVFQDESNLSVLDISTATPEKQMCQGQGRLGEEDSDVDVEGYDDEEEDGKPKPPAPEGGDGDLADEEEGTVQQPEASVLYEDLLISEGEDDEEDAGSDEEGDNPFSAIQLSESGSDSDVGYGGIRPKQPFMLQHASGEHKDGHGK
# UniProt P22303, sequence (whole entry, looked up): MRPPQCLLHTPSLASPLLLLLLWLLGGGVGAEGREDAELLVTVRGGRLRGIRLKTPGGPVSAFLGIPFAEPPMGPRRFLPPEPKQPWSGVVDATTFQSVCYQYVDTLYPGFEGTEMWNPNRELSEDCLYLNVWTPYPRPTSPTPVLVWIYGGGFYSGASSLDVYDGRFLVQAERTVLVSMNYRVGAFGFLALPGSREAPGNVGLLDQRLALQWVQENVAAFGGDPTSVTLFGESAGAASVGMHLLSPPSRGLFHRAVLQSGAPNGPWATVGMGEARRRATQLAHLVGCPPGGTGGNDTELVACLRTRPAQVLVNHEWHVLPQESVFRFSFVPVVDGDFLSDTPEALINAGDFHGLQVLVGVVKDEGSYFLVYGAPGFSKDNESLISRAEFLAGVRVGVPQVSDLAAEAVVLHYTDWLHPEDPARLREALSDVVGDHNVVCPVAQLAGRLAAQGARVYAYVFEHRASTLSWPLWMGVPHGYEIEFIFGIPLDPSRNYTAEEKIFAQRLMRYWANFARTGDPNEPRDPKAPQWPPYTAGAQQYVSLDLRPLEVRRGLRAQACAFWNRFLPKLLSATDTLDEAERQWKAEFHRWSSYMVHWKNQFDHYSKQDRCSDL
# UniProt Q9Y5N1, sequence (whole entry, looked up): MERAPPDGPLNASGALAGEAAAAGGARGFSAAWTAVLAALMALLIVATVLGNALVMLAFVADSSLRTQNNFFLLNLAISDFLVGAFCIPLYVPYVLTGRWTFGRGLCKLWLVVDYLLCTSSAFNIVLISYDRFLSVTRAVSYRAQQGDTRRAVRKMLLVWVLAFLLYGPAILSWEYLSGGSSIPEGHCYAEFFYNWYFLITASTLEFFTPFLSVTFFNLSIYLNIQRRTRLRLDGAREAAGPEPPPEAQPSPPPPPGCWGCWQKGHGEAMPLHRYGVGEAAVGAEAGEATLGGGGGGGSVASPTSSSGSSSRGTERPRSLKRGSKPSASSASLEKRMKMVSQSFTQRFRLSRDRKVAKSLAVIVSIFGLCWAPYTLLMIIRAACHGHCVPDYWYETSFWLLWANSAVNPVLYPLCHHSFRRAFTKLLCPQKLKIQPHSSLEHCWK
SMILES,target or system,assay,test system,setting,measurement,result
[2H]c1c([2H])c([C@]2([2H])CCCN2C(=O)C(C)(C)Oc2ccc3cn[nH]c3c2)c([2H])c([2H])c1C([2H])([2H])[2H],"MAP2K4 (Homo sapiens, UniProt P45985)","binding, competition with immobilised ligand",,1 µM,remaining binding,100%
CC(C)[C@H](NC(=O)[C@H](Cc1ccc(O)cc1)NC(=O)CCc1ccc(O)cc1)C(=O)N[C@@H](CCCNC(=N)N)C(=O)c1nc2ccccc2s1,TMPRSS2,"enzyme activity, inhibitor",,1 nM,activity vs control,65%
Cc1nn(C)cc1-c1nc2c(N3CCN(Cc4ccc(Cl)cc4)CC3)c(Cl)cnc2[nH]1,"MET (Homo sapiens, UniProt P08581, M1250T)","binding, competition with immobilised ligand",,1 µM,remaining binding,93%
CN1CCC[C@H]1c1cccnc1,"HRH3 (Homo sapiens, UniProt Q9Y5N1)",ligand displacement,,50 µM,inhibition,53.8%
Nc1ncc(-c2nc(N3CCOCC3)nc(N3CCOCC3)n2)c(C(F)F)n1,"Tyrosine-protein kinase ABL1, non-phosphorylated (ABL1, Homo sapiens, UniProt P00519, Q252H)","binding, competition with immobilised ligand",,10 µM,remaining binding,70%
NCc1c[nH]c2ccccc12,CTSL,"enzyme activity, inhibitor",,100 µM,remaining activity,130%
CC(C)CC(=O)OC[C@H]1O[C@@](C#N)(c2ccc3c(N)ncnn23)[C@H](O)[C@@H]1O,"CXCR2 (Homo sapiens, UniProt P25025)",cell-free assay,,20 µM,inhibition,-2%
O=c1cc(NCCCNCc2scc(I)c2I)[nH]c2ccccc12,PFF0160c E182D,"enzyme activity, inhibitor, absorbance",,,IC50,3220 nM
CN1C(=S)N(c2ccccc2)C(=O)/C1=C1/C(=O)N(C)c2ccc(Cl)cc21,"ACHE (Homo sapiens, UniProt P22303)","enzyme activity, inhibitor, Ellman",,10 µM,inhibition,73%
N#CCc1c[nH]c2ccccc12,CTSL,"enzyme activity, inhibitor",,100 µM,remaining activity,121%
Cc1ccc(N2CCc3c(-c4cc5cccnc5nc4C)cc(C)nc32)c(Cl)c1,PFF0160c E182D,"enzyme activity, inhibitor, absorbance",,,IC50,76.9 nM
C#Cc1n[nH]c2c(-c3cn(C(C)c4ccccn4)c(=O)[nH]c3=O)cc(F)cc12 (centres unmarked),"AXL (Homo sapiens, UniProt P30530)","enzyme activity, inhibitor",,1 µM,inhibition,46%
N=C(N)NCCC[C@H](NC(=O)[C@H](Cc1ccccc1)NC(=O)[C@H](CCC(N)=O)NC(=O)[C@@H]1CCC(=O)N1)C(=O)c1nc2ccccc2s1,TMPRSS2,"enzyme activity, inhibitor",,1 nM,activity vs control,50%
Nc1c(C(=O)NCc2ccccc2)sc2ncccc12,Mycobacterium tuberculosis,microbial growth,H37RV,,IC50,> 100000 nM
C[C@@H](O)[C@H](NC(=O)[C@H](CCc1ccccc1)NC(=O)CCc1ccccc1)C(=O)N[C@@H](CCCNC(=N)N)C(=O)c1nc2ccccc2s1,TMPRSS2,"enzyme activity, inhibitor",,1 nM,activity vs control,81%
N.N.[Cl][Pt][Cl],HuT78,"cell growth or viability, ATP luminescence",,72 h,IC50,820 nM
CC(=O)N[C@@H](CCC(N)=O)C(=O)N[C@@H](Cc1ccccc1)C(=O)N[C@H](CCCNC(=N)N)C(=O)Cc1ccccc1,TMPRSS2,"enzyme activity, inhibitor",,1 nM,activity vs control,94%
CCN(CC)CCCC[C@H](NC(=O)[C@H](CC(C)C)NC(=O)[C@H](C)NC(=O)[C@H](Cc1ccccc1)NC(=O)c1ccc(C(C)(C)C)cc1)C(=O)N[C@@H](CO)C(=O)OC,"Transcription initiation factor TFIID subunit 1-like, BD1 (TAF1L, Homo sapiens, UniProt Q8IZX4)","thermal stability, DSF",,25 µM,ΔTm,0.45 °C
CC(C)CCC(=O)N[C@@H](Cc1ccc(O)cc1)C(=O)N[C@H](C(=O)N[C@H](CCCNC(=N)N)C(=O)c1nc2ccccc2s1)C(C)C,TMPRSS2,"enzyme activity, inhibitor",,1 nM,activity vs control,52%
COc1ncccc1-c1cnn2ccc(N3CCN(C(=O)OC(C)C)CC3)nc12,"CSNK1A1L (Homo sapiens, UniProt Q8N752)","binding, competition with immobilised ligand",,1 µM,remaining binding,100%

# Excerpt of the above:
SMILES,target or system,assay,test system,setting,measurement,result
C[C@@H](O)[C@H](NC(=O)[C@H](CCc1ccccc1)NC(=O)CCc1ccccc1)C(=O)N[C@@H](CCCNC(=N)N)C(=O)c1nc2ccccc2s1,TMPRSS2,"enzyme activity, inhibitor",,1 nM,activity vs control,81%
N.N.[Cl][Pt][Cl],HuT78,"cell growth or viability, ATP luminescence",,72 h,IC50,820 nM
CC(=O)N[C@@H](CCC(N)=O)C(=O)N[C@@H](Cc1ccccc1)C(=O)N[C@H](CCCNC(=N)N)C(=O)Cc1ccccc1,TMPRSS2,"enzyme activity, inhibitor",,1 nM,activity vs control,94%
